Experimental data from different studies.
Numbered parts are unrelated; each lists some results of a single study.

Block 1
Target: Hepatocyte nuclear factor 3-alpha (Foxa1, Mus musculus, UniProt P35582, residues 1-468, full length assumed)
Technique: EMSA with sequencing
Molecule type: double-stranded DNA, one strand shown
Matrix: in vitro
Tested at: 10 and 20 nM
Notes: whole designed probe, mean of two concentrations, ends assumed
Reference: negative control set to 0
Direction: higher = stronger binding
Endpoint: normalised bound fraction
All sequences stand within: GTGAGCGGTGCCCATTGATGGGGAAC … TTTCACTGGGATCGTGGGGAC
Target sequence (chain): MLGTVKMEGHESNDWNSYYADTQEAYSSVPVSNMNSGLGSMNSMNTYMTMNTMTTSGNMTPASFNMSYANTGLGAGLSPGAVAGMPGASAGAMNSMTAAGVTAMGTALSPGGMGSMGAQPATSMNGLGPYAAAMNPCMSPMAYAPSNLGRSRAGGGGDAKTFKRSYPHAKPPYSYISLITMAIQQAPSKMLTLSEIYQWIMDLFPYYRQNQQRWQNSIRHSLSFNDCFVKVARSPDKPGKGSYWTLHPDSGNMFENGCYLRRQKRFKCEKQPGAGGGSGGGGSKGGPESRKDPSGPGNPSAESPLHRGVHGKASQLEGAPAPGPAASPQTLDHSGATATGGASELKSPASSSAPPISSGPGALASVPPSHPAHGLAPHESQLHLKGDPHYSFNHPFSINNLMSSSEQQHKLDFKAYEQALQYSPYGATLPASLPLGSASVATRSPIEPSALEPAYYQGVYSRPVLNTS
Oligonucleotide = GGCCTTTCAATATGCTATAGTGTCTATCAGTTTCTTTTAGGCTTATTCTATCACAATTTTCATTCTCTATTAATCCCCTAAGTGTCTCTATAAGTAAATAACTAGATTATTTGGAAAGTTGCTGTTTAAAGAACTACTTGTAAGTTCAAGTGGCCTTTGGAGTGTGAATAAGTACCCATAATTCATCTATGAT; value = 0.243 ratio
Oligonucleotide = GTAGGCCTCTGCTGCACCTGTCAACTCCACCTGGCGGCACAGAAGCTGCCAACGGTACGTCAGTGAGTTACCTTGGCCGTGTTCCAGTGAAACAGATTACACAGGCAGGTGGAAGTGACTGTGGTGATGGTTGCGTAACTCTGTGAACACACTGGAAACCATTGAATGTGTGTACTTGATCTGAATTGCGTGG; value = -0.0105 ratio
Oligonucleotide = ATCTTCCCCCTCTTCCTTGCCCCACCAGCTCACCTACGGGGGTTATTTGCACAAAGGAAAATAAATAAAGCCGGCATTCGTTAACCCTCTTCTGGCGCAAACTGCTGTTTGCTCTGGATCTAACATGGTCCTTTGGCGACGCCAGGCTCCGGGAGAGCAAAGCACCGTGTCAGGGCCATGATCCGGGCTCGCC; value = 0.381 ratio
Oligonucleotide = AGTTTTATTTATTTGCTTTTTATTTATATTGCTTTTTCCTTATTTTCCTCATAGGCCCACTAATAATTTATTTGAAAAATATTTAGTTATTCCATGTTTACTTATTTCAATATAGTCATTTCTATTTTATACAGTAATTTATTTCTATCTGTTTTCCTTAGGATTCTTGATTCTAACAGCTTGAGTTAATGCT; value = 0.52 ratio
Oligonucleotide = TTCTGGTAACTCCAACTTTTGGCTCATTTGTGGGTCAGACAGATCTGAGAAGCTTGGTTTTTTTTTACTCTGTCTCAGGTACTTTATATTTAGAGATTACATTCCTAGCCAGAGAAGCATTTATGTAATCTCTCTCTATATTTAATGACTCAGTTTAAGAAAATGCTTACAATAATTGAGGTCTCCTTGTTTC; value = -0.00347 ratio

Block 2
Target: Interferon regulatory factor 7, full length, phosphomimetic (IRF7, Homo sapiens, UniProt Q92985, residues 1-503, S471D/S472D/S475D/S476D/S477D/S483D/S484D/S487D)
Technique: protein-binding microarray
Molecule type: double-stranded DNA, one strand shown
Matrix: in vitro
Tested at: 2200 nM top
Notes: 60-bp whole probe
Together with: salmon DNA 0.4 mg/ml
Reference: random background probes
Direction: higher = stronger binding
Endpoint: fitted relative affinity
All sequences stand within: GCCTAGCAC … GTCTTGATTCGCTTGACGCTGCTG
Target sequence (chain): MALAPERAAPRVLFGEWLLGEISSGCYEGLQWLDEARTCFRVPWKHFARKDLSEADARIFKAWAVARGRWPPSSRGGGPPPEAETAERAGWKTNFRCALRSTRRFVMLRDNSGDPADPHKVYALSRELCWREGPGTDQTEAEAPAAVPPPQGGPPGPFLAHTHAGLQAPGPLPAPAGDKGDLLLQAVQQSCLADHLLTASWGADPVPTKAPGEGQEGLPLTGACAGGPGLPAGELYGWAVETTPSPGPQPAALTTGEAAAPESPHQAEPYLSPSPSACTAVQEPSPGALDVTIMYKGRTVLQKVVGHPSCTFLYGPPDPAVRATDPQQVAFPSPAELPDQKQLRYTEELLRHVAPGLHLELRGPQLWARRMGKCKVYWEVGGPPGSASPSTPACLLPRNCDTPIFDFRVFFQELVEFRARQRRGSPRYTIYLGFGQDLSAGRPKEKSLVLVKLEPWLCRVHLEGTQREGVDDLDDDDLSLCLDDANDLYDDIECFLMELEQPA
Oligonucleotide = CCACTCTTCCTTTACTTTCTGTGCTAG; value = 2.92 z-score
Oligonucleotide = TCACTCTTCTGGATCTCACTGTGCTAG; value = 1.64 z-score
Oligonucleotide = TTAGGTATGGGGACTGGGTTAGTGCTA; value = -0.458 z-score
Oligonucleotide = GACGGTTCCCTTTTACTGACGTGCTAG; value = 2.73 z-score
Oligonucleotide = TGCACTCTTTACATGGGTTTGTGCTAG; value = 1.18 z-score
Oligonucleotide = TTAGGTTTCGGATTCGGTTAGTGCTAG; value = 8.72 z-score
Oligonucleotide = TTAGGACTGGAATATCGGTTAGTGCTA; value = -0.367 z-score
Oligonucleotide = GAAGGTTTCCTTATCCTGACGTGCTAG; value = 1.97 z-score
Oligonucleotide = TCACCTGTCCTTTTCTTACTGTGCTAG; value = 2.62 z-score
Oligonucleotide = GACGATCTCGGACTGGGGACGTGCTAG; value = -0.435 z-score
Oligonucleotide = TCAACTTTCTTTACTTCACTGTGCTAG; value = 1.99 z-score
Oligonucleotide = GACGGACTGGGACCGGGGACGTGCTAG; value = -0.783 z-score
Oligonucleotide = TTAGGACTGGACAATGGGTTAGTGCTA; value = -0.586 z-score
Oligonucleotide = TTAGATCTCAGTATCGTTTAGTGCTAG; value = 0.594 z-score
Oligonucleotide = GACCATATCGGGTTTCGAGACGTGCTA; value = 1.66 z-score
Oligonucleotide = TCAGATATCAGTCTCGATTAGTGCTAG; value = 0.542 z-score
Oligonucleotide = CACGATATCGGGTTTCGAGACGTGCTA; value = 1.87 z-score
Oligonucleotide = GACGGTTACCTTTCCCTGACGTGCTAG; value = 1.47 z-score
Oligonucleotide = TTAGGCTTCGACTATCGGTTAGTGCTA; value = -0.185 z-score

Block 3
Target: Histone acetyltransferase KAT6A, winged helix 1, GST fusion (KAT6A, Homo sapiens, UniProt Q92794, residues 1-85)
Technique: protein binding microarray
Molecule type: double-stranded DNA, one strand shown
Matrix: in vitro
Tested at: not given
Notes: 8-mer, flanks averaged, mean of 2 arrays, mostly near background
Reference: not given
Direction: higher = stronger binding
Endpoint: E-score
Target sequence (chain): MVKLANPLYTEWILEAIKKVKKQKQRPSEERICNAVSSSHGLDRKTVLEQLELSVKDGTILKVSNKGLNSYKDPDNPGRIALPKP
Oligonucleotide = AGAGATGA; value = -0.132
Oligonucleotide = CGCCGGGC; value = 0.457
Oligonucleotide = ACTACGTC; value = -0.0412
Oligonucleotide = CGTCGGGC; value = 0.446
Oligonucleotide = AAAGAGCT; value = -0.121
Oligonucleotide = CATTTGCA; value = -0.203
Oligonucleotide = ACTAAGCG; value = 0.201
Oligonucleotide = ACGCGAAT; value = 0.128
Oligonucleotide = CCATTGCA; value = -0.15
Oligonucleotide = ATCAGTGC; value = -0.122
Oligonucleotide = TGCAGACA; value = -0.327
Oligonucleotide = CGGGCAGC; value = 0.278
Oligonucleotide = AGAGGAGA; value = -0.201
Oligonucleotide = GCCCTAGA; value = -0.0591
Oligonucleotide = CGATGCTC; value = 0.0656
Oligonucleotide = ACCCAGTA; value = -0.213
Oligonucleotide = CCTAGTCA; value = -0.229
Oligonucleotide = AACTCACT; value = -0.235
Oligonucleotide = AAACGCTA; value = -0.00598
Oligonucleotide = AGTGGCCC; value = -0.00905
Oligonucleotide = AGCCCGAC; value = 0.103
Oligonucleotide = AGTAGGTC; value = -0.0417
Oligonucleotide = AGCTGAAG; value = -0.159
Oligonucleotide = AAGTTTAC; value = -0.0231

Block 4
Target: Prothrombin, mature alpha-thrombin (F2, Homo sapiens, UniProt P00734)
Technique: aptamer microarray, sandwich
Molecule type: DNA with 2'F-ANA
Matrix: in vitro
Tested at: 200 nM
Notes: whole 15-mer aptamer, many near background
Together with: Cy3 exosite-II aptamer, 400 nM
Direction: higher = stronger binding
Endpoint: mean fluorescence intensity
Oligonucleotide: GGTTGGTGTGGTTGG
Modification = 2'F-ANA at 1 2 3 4 5 6 8 10; value = 51.8 a.u.
Modification = 2'F-ANA at 1 2 6 7 10 14 15; value = 48.6 a.u.
Modification = 2'F-ANA at 5 7 9 12 15; value = 159 a.u.
Modification = 2'F-ANA at 7 8 9 10 13 15; value = 195 a.u.
Modification = 2'F-ANA at 5 9 11 12 13; value = 93.4 a.u.
Modification = 2'F-ANA at 2 5 7 8 9 10 12 13 14; value = 47.1 a.u.
Modification = 2'F-ANA at 2 3 5 7 8 9 15; value = 119 a.u.
Modification = 2'F-ANA at 1 2 3 4 5 6 8 9 10 11 12; value = 52 a.u.
Modification = 2'F-ANA at 1 2 4 5 6 7 11 13; value = 54.5 a.u.
Modification = 2'F-ANA at 1 2 3 6 7 11 14 15; value = 61 a.u.
Modification = 2'F-ANA at 2 3 4 5 7 8; value = 118 a.u.
Modification = 2'F-ANA at 1 4 5 8 10 12 15; value = 46.7 a.u.
Modification = 2'F-ANA at 1 2 4 7 8 9 10 12 13 14 15; value = 52.1 a.u.
Modification = 2'F-ANA at 1 3 8 11 15; value = 297 a.u.
Modification = 2'F-ANA at 1 2 5 6 12 13; value = 85.7 a.u.
Modification = 2'F-ANA at 2 4 5 6 8 10 13 14; value = 47.5 a.u.
Modification = 2'F-ANA at 1 5 6 8 9 12 15; value = 117 a.u.
Modification = 2'F-ANA at 1 2 3 4 6 9 11 12 15; value = 214 a.u.
Modification = 2'F-ANA at 3 5 8 10 11 15; value = 92.5 a.u.
Modification = 2'F-ANA at 1 6 7 10 12 13 15; value = 81.2 a.u.
Modification = 2'F-ANA at 2 3 4 6 8 9 10 12 15; value = 243 a.u.
Modification = 2'F-ANA at 1 4 7 8 9 10 12; value = 57.8 a.u.

For quick reference, copied from above (block 2):
Oligonucleotide = TCACCTGTCCTTTTCTTACTGTGCTAG; value = 2.62 z-score
Oligonucleotide = GACGGTTACCTTTCCCTGACGTGCTAG; value = 1.47 z-score
Oligonucleotide = TCAACTTTCTTTACTTCACTGTGCTAG; value = 1.99 z-score
Oligonucleotide = CACGATATCGGGTTTCGAGACGTGCTA; value = 1.87 z-score
Oligonucleotide = TTAGGACTGGACAATGGGTTAGTGCTA; value = -0.586 z-score
Oligonucleotide = TTAGGCTTCGACTATCGGTTAGTGCTA; value = -0.185 z-score
Oligonucleotide = GACGGTTCCCTTTTACTGACGTGCTAG; value = 2.73 z-score
